Results gathered from unrelated publications.
Compare with care: the assays were run in different laboratories. ± marks the error that the study gave. Converted amounts (≈) assume the structure as drawn.

CCOC(=O)c1c(-c2ccccc2)oc2ccc(NS(=O)(=O)c3ccc(F)cc3)cc12 — selectivity index (porcine epidemic diarrhea virus; Vero; relative to: CC50 over EC50): 5
Cc1cc(C#N)cc(C)c1Oc1nc(NC2CCN(Cc3ccc(S(N)(=O)=O)cc3)CC2)nc2ccccc12 — selectivity index (HIV-1; TZM-bl, NL4-3 wild type; relative to: CC50 over EC50): > 142
N#Cc1ccc(-c2ccc(-c3cccs3)s2)cc1 — revertant colonies (Salmonella typhimurium; mutagenicity, Ames test; TA1535; 5 or 10 µM, 48 h, pH 7.4, lower tested concentration, added: rat liver S9 mix): 15.3 ± 1.5 colonies/plate
Cc1cc(C#N)cc(C)c1Oc1nc(NC2CCN(Cc3ccc(S(C)(=O)=O)cc3)CC2)nc2ccccc12 — selectivity index (HIV-1; TZM-bl, NL4-3 wild type; relative to: CC50 over EC50): > 163
Nc1ccn(C[C@@H](CO)OCP(=O)(O)OCCCS(=O)(=O)CCCCCCCCCCCCCC2CCC2)c(=O)n1 — therapeutic window (human adenovirus C6; tonsil 99, Syrian hamster, male, immunosuppressed; oral, 10 vs 0.3 mg/kg/day once daily): ~30 fold
COc1ccc(CNc2nc(N3CCC[C@H]3CO)ncc2C(=O)NNC(=O)c2cnc(N3CCC[C@H]3CO)nc2NCc2ccc(OC)c(Cl)c2)cc1Cl — revertant count (Salmonella typhimurium; TA98; 500 µg/plate, 48 h): 26 ± 4
N=C(N)c1ccc(-c2ccc(-c3cccs3)o2)cc1 — revertant colonies (Salmonella typhimurium; mutagenicity, Ames test; TA1535; 10 or 20 µM, 48 h, pH 7.4, higher tested concentration, added: rat liver S9 mix): 13.7 ± 1.5 colonies/plate
Cc1cc(C#N)cc(C)c1Oc1nc(NC2CCN(Cc3ccc(C(N)=O)cc3)CC2)nc2ccccc12 — selectivity index (HIV-1; TZM-bl, NL4-3 wild type; relative to: CC50 over EC50): > 136
N#Cc1ccc(-c2ccc(-c3ccco3)o2)cc1 — revertant colonies (Salmonella typhimurium; mutagenicity, Ames test; TA1535; 5 or 10 µM, 48 h, pH 7.4, lower tested concentration, added: rat liver S9 mix): 13.3 ± 1.5 colonies/plate
CC(=NNC(=N)N)c1nnn(-c2ccc(C#CC3(O)CCCCC3)cc2)c1C — selectivity index (Staphylococcus aureus; Caco-2, MRSA NRS384 USA300; relative to: Caco-2 IC50 over MIC): 5.5
N=C(N)c1ccc(-c2ccc(-c3cccs3)o2)nc1 — revertant colonies (Salmonella typhimurium; mutagenicity, Ames test; TA1535; 5 or 10 µM, 48 h, pH 7.4, lower tested concentration, added: rat liver S9 mix): 30.3 ± 3.5 colonies/plate
CC(=O)N(O)CCCP(=O)(O)O — revertant count (Salmonella typhimurium; Ames test; TA100; 100 µg/plate, without S9): 48 colonies
N#Cc1ccc(-c2ccc(-c3cccs3)o2)nc1 — revertant colonies (Salmonella typhimurium; mutagenicity, Ames test; TA1535; 10 or 20 µM, 48 h, pH 7.4, higher tested concentration, added: rat liver S9 mix): 34 ± 3 colonies/plate
C=CC(=O)Nc1cccc(Cn2ncc3cnc(Nc4cnn(CCOC)c4)nc32)c1 — mutagenicity (Salmonella typhimurium; Ames test; TA100; concentration not given, with and without S9): negative
N=C(N)c1ccc(-c2ccc(-c3ccco3)o2)nc1 — revertant colonies (Salmonella typhimurium; mutagenicity, Ames test; TA1535; 10 or 20 µM, 48 h, pH 7.4, higher tested concentration, added: rat liver S9 mix): 16.7 ± 1.9 colonies/plate
COc1ccc(CNc2nc(N3CCC[C@H]3CO)ncc2C(=O)NN)cc1Cl — revertant count (Salmonella typhimurium; TA1535; 62.5 µg/plate, 48 h, added: rat liver S9): 57 ± 2
N=C(N)NCCC[C@@H]1NC(=O)[C@H](CCCNC(=N)N)NC(=O)[C@H](CCCNC(=N)N)NC(=O)[C@H](CCCNC(=N)N)NC(=O)[C@H](Cc2c[nH]c3ccccc23)NC(=O)[C@H](CCCNC(=N)N)NC(=O)[C@H](CCCNC(=N)N)NC(=O)[C@@H](N)CCCCn2cc(nn2)C[C@@H](C(N)=O)NC1=O — MIC (Staphylococcus aureus; broth microdilution; ATCC 25923; 2 h, 37 °C, added: 12.5% fetal bovine serum preincubation): 15.6 µg/mL (≈ 11.2 µM)
CC(C)C[C@@H]1NC(=O)[C@@H](Cc2ccccc2)NC(=O)[C@H](CCN)NC(=O)[C@@H](NC(=O)[C@H](CN)NC(=O)[C@@H](NC(=O)C[C@H](CN)c2cccc(Cl)c2)[C@@H](C)O)CCNC(=O)[C@H]([C@@H](C)O)NC(=O)[C@H](CCN)NC(=O)[C@H](CCN)NC1=O — tolerability (Acinetobacter baumannii NCTC 13301; neutropenic mouse, lung infection; subcutaneous, 25.8 mg/kg three doses every 4 h): not toxic
N#Cc1ccc(-c2ccc(-c3ccco3)o2)nc1 — revertant colonies (Salmonella typhimurium; mutagenicity, Ames test; TA1535; 10 or 20 µM, 48 h, pH 7.4, higher tested concentration, added: rat liver S9 mix): 23.7 ± 2.5 colonies/plate
COC(=O)c1cn([C@H]2C[C@@H](C(=O)NCc3cccc(C(F)(F)F)c3)N(C3CCN(Cc4ccccc4)CC3)C2)nn1 — selectivity index (porcine epidemic diarrhea virus; Vero; relative to: CC50 over EC50): > 2
CCC(=O)N(C)c1ccc(Cl)c(Cl)c1 — revertant colonies (Salmonella typhimurium; Ames test; TA100; 1.00 mg/plate, with rat liver S9): 53 ± 4.6 revertants/plate

For quick reference, copied from above:
N#Cc1ccc(-c2ccc(-c3cccs3)o2)nc1 — revertant colonies (Salmonella typhimurium; mutagenicity, Ames test; TA1535; 10 or 20 µM, 48 h, pH 7.4, higher tested concentration, added: rat liver S9 mix): 34 ± 3 colonies/plate
C=CC(=O)Nc1cccc(Cn2ncc3cnc(Nc4cnn(CCOC)c4)nc32)c1 — mutagenicity (Salmonella typhimurium; Ames test; TA100; concentration not given, with and without S9): negative
